Measured values gathered from unrelated publications.
Lines come from different studies, so protocols differ. Several values in a cell are separate wells, animals, samples, runs or records. ± marks the error that the study gave.

| SMILES | cell line | assay | test system | conditions | scale | measurement | result |
| --- | --- | --- | --- | --- | --- | --- | --- |
| COc1cc(CNC(=O)C[C@H](C)CCC=C(C)C)ccc1OCc1cn(-c2ccc(Br)cc2)nn1 | SK-MEL-2 melanoma cells | SRB | – | 10 µM, 48 h | – | growth percent | 78% |
| CCN(CC)CCNC(=S)Nc1ccc2nc(N3CCN(CC)CC3)cc(C)c2c1 | BCR-ABL1+ BRCA1-deficient 32Dcl3 | item: GFP-RAD52 foci | – | 2.5 µM, added: cisplatin | reference: cisplatin alone | decrease in foci-positive cells | 2 to 2.5 fold |
| COc1cc(O)c(-c2c(O)cc(OC)c3c2ccc2cc(O)ccc23)c2ccc3ccccc3c12 | BV-2 | ELISA, item: IL-6 | – | concentration not given, pretreatment, added: LPS | – | cytokine release | decreased |
| O=C(O)CCC(NP(=O)(O)OCCC[C@@H](NC(=O)CC[C@H](NC(=O)CCCCCNC(=O)c1ccc([18F])cc1)C(=O)O)C(=O)O)C(=O)O (stereo partly shown) | CWR22Rv1 | – | – | concentration not given, 4 h | – | internalization | 90.7% and 91% |
| COC(=O)c1ccccc1-c1c2ccc(=O)cc-2oc2cc(OCCCCCCCCCCC[P+](c3ccccc3)(c3ccccc3)c3ccccc3)ccc12 | HeLa cells | confocal microscopy | mitochondria | 100 nM | reference: MitoTracker Deep Red | fluorescence ratio | 1.01 |
| O=C1OCC2=C1C(c1cccc(Br)c1)C1=C(N2)C(=O)c2ccccc2C1=O (stereo not shown) | SK-LU-1 cells | annexin V/PI | – | 0.32 µM, 24 h | – | necrotic cells | 4.82% |
| COc1cc(C(=O)c2[nH]c(N)nc2-c2cccs2)cc(OC)c1OC | HeLa cells | Hoechst staining | – | 200 nM | – | mitotic index | 23 ± 2.2 |
| CCC(=C(c1ccc(Cl)cc1)c1ccc(OCCCN(C)C)cc1)c1ccc(OC)cc1 | SF-539 | cell growth or viability, SRB | – | – | – | GI50 | 4.08 µM |
| COc1cc(CNC(=O)C[C@H](C)CCC=C(C)C)ccc1OCc1cn(-c2ccc(Cl)cc2Cl)nn1 | U-251 CNS cancer cells | SRB | – | 10 µM, 48 h | – | growth percent | 54.4% |
| CCNS(=O)(=O)c1ccc(COc2ccc3nc4ccc(=O)cc-4oc3c2)cc1 | BT-549 | DDR2 signalling, Western blot | – | 1 µM, 6 h, added: collagen I 2 mg/mL | – | SNAIL1 protein stabilization | inhibited |
| COc1cc(OC)cc([C@@H]2C[C@H](C)OC(=O)c3c(C(=O)C(F)(F)F)c4ccccn4c32)c1 (relative stereo) | RWPE-1 and DU-145 | resazurin | – | – | reference: CC50 RWPE-1 over IC50 DU-145 | selectivity ratio | 1.03 |
| COc1cc(CNC(=O)C[C@H](C)CCC=C(C)C)ccc1OCc1cn(-c2cccc(C(F)(F)F)c2)nn1 | A498 | SRB | – | 10 µM, 48 h | – | growth percent | 91% |
| CC[C@@]12CC(O)c3[nH]c4ccccc4c3CCN(C[C@H]3O[C@H]31)C2 (stereo partly shown) | BV-2 | NO production | – | 12 µM, 1 h, 24 h stimulation, added: LPS 800 ng/mL | reference: LPS control | inhibition | 41.1 ± 0.8% |
| O=C1c2c(O)cc3oc4cc(O)c(O)cc4c3c2OC1Cc1ccc(O)cc1 (stereo not shown) | L02 | MTT | – | 10 µM, 2 h, added: H2O2 100 µM | reference: untreated | viability | 90.1% |
| COc1cc2c(cc1C)NC(=O)C2=Cc1c(Cl)[nH]c2c1ccc1ccccc12 | melanoma subpanel of NCI-60 | – | – | 48 h | – | TGI | 7.94 µM |
| COc1cc(CNC(=O)C[C@H](C)CCC=C(C)C)ccc1OCc1cn(-c2ccc([N+](=O)[O-])cc2)nn1 | SK-MEL-2 melanoma cells | SRB | – | 10 µM, 48 h | – | growth percent | 64.5% |
| CCCN(CCC)c1ncnc2c1cnn2-c1ccc(C)c(C)c1 | primary rat pancreatic islets | – | – | 30 µM, 48 h | reference: equimolar EUK-134 | glucose-stimulated insulin secretion | increased |
| CC/C=C\C/C=C\C/C=C\C/C=C\C/C=C\C/C=C\CCC(=O)Nc1ccn(C2OC(CO)C(O)C2(F)F)c(=O)n1 (stereo not shown) | Hs-578T | cell growth or viability, SRB | – | – | – | GI50 | 17 µM |
| COc1cc(CNC(=O)C[C@H](C)CCC=C(C)C)ccc1OCc1cn(-c2ccccc2)nn1 | SF-539 CNS cancer cells | SRB | – | 10 µM, 48 h | – | growth percent | 96% |
| C=CC(=O)Oc1ccc(Cl)cc1C(=O)Nc1ccc([N+](=O)[O-])cc1Cl | C4-2B MDVR cells | ELISA | – | 1 µM, 48 h, FBS conditions | – | PSA level | decreased |

| SMILES | cell line | assay | test system | conditions | scale | measurement | result |
| --- | --- | --- | --- | --- | --- | --- | --- |
| Cn1cnnc1Sc1c2c(c(C#N)c3nc4ccccc4n13)CCCC2 | Ero1α/β-null mouse platelets | – | – | 5 µM, added: 0.015 U/mL thrombin | – | aggregation and ATP secretion | no effect |
| O=C1NCC(Cc2ccccc2)N(CC2CCCN2CC(CC2CCCCC2)N2CC(Cc3ccc(O)cc3)N(CCc3ccccc3)C(=O)C2=O)C1=O (stereo not shown) | WM 266-4 | – | – | concentration not given, 4 h | – | mitochondrial membrane potential | decreased |
| CC(=O)OC[C@H]1O[C@@H](Sc2sc(C(=O)c3ccc(C)cc3)c(N)c2-c2nc3ccccc3s2)[C@H](OC(C)=O)[C@@H](OC(C)=O)[C@@H]1OC(C)=O | IGROV-1 | SRB | – | 10 µM, 48 h | reference: untreated | growth | 48.2% |
| COc1cc(CNC(=O)C[C@H](C)CCC=C(C)C)ccc1OCc1cn(-c2ccccc2Cl)nn1 | RPMI-8226 leukaemia cells | SRB | – | 10 µM, 48 h | – | growth percent | 47.6% |
| COc1ccc([C@@H]2CC(=O)c3c(O)cc(O[C@@H]4O[C@H](CO[C@@H]5O[C@@H](C)[C@H](O)[C@@H](O)[C@H]5O)[C@@H](O)[C@H](O)[C@H]4O)cc3O2)cc1O | MRC5 | trypan blue exclusion | – | 100 µg/mL, 48 h | – | cell count | 13300 ± 498 |
| COc1cc(CNC(=O)C[C@H](C)CCC=C(C)C)ccc1OCc1cn(-c2ccc(C#N)cc2)nn1 | SK-MEL-2 melanoma cells | SRB | – | 10 µM, 48 h | – | growth percent | 80% |
| CCc1nnc(NS(=O)(=O)c2ccc(NC(=S)NC(=O)/C=C/c3ccc(F)cc3)cc2)s1 | SK-N-AS EP2 knock-out | – | – | 10 µM | – | colony density | no effect |
| O=Cc1c(O)ccc2ccccc12 | HUVEC | RNA sequencing, item: HOXB9 | – | 75 µM, 24 h | reference: DMSO | log2 fold change | 2.79 |
| COc1cc(CNC(=O)C[C@H](C)CCC=C(C)C)ccc1OCc1cn(-c2ccc(F)cc2)nn1 | SF-539 CNS cancer cells | SRB | – | 10 µM, 48 h | – | growth percent | 68.4% |
| O=C(CCCCC1SCC2NC(=O)NC21)NCCCCC(CN1CCCC1CN1C(=O)C(=O)NCC1Cc1ccccc1)N1CC(Cc2ccc(O)cc2)N(CCc2ccccc2)C(=O)C1=O (stereo not shown) | WM 266-4 | western blot, item: cleaved lamin A/C | – | 100 µM, 24 h | – | lamin A/C cleavage | no effect |
| COC1CN([C@H]2CC[C@H]([C@@]3(C)Oc4c(Cl)cc(C(=O)NCc5c(SC)cc(C)[nH]c5=O)c(C)c4O3)CC2)C1 | HT-1376 | cell growth or viability, ATP luminescence | – | 12 days | – | GI50 | 0.01 µM |
| N#Cc1cccc(-c2ccc(=O)n(Cc3cccc(-c4ncc(OCC5CCN(CC(=O)NCCOCCNc6ccc7c(c6)C(=O)N(C6CCC(=O)NC6=O)C7=O)CC5)cn4)c3)n2)c1 (stereo not shown) | EBC-1 | annexin V flow cytometry | – | 100 nM, 48 h | – | apoptotic cells | 62.5% |
| CC(=O)Oc1ccccc1C(=O)[O][Pt]([NH2])([NH2])([Cl])([Cl])[O]C(=O)C(Cl)Cl | six human cancer cell lines | MTT | – | – | reference: oxaliplatin over compound | mean IC50 ratio | ~5 |
| CC(=O)OC[C@H]1O[C@@H](Sc2sc(C(=O)c3ccc(Br)cc3)c(N)c2-c2nc3ccccc3s2)[C@H](OC(C)=O)[C@@H](OC(C)=O)[C@@H]1OC(C)=O | Hs-578T | SRB | – | 10 µM, 48 h | reference: untreated | growth | 93.8% |
| CN1CCN(C(=O)N(CCCCCCC(=O)NO)c2ccc(-c3ccc4cnn(C)c4c3)cc2)CC1 | MM1.S | flow cytometry, propidium iodide | – | 300 nM, 24 h | – | sub-G1 cells | 22.6 ± 1.43% |
| CCCC[C@H](NC(=O)[C@H](Cc1ccccc1)NC(=O)[C@H](Cc1c[nH]cn1)NC(=O)CCNC(=O)[C@@H](NC(=O)[C@H](C)NC(=O)[C@H](Cc1c[nH]c2ccccc12)NC(=O)[C@H](CCC(N)=O)NC(=O)[C@H](N)Cc1ccc(O)cc1)C(C)C)C(N)=O | NCI-H1299 expressing BRS-3 | EGFR transactivation, Western blot | – | 100 nM | – | EGFR tyrosine phosphorylation | increased |
| CCCCCCCCCCCCCCCC(=O)N[C@@H](CCCCNC(=O)[C@H](CCCCNC(=O)CCC(=O)NCCN(C)CCNc1ccnc2cc(C(F)(F)F)ccc12)NC(=O)CCC(=O)NCCN(C)CCNc1ccnc2cc(C(F)(F)F)ccc12)C(=O)N[C@@H](CS)C(=O)NCC(=O)NCC(=O)NCC(=O)N[C@@H](C)C(=O)N[C@@H](CCCNC(=N)N)C(=O)N[C@@H](CCCCN)C(=O)N[C@@H](CCCCN)C(=O)N[C@@H](C)C(=O)N[C@@H](C)C(=O)N[C@@H](CCCCN)C(=O)N[C@@H](C)C(=O)N[C@@H](C)C(=O)N[C@@H](CCCNC(=N)N)C(=O)N[C@@H](CCCCN)C(=O)N[C@@H](CCCCN)C(=O)N[C@@H](C)C(=O)N[C@@H](C)C(=O)N[C@@H](CCCCN)C(=O)N[C@@H](C)C(=O)N[C@@H](C)C(=O)N[C@@H](CCCNC(=N)N)C(=O)N[C@@H](CCCCN)C(=O)N[C@@H](CCCCN)C(=O)N[C@@H](C)C(=O)N[C@@H](C)C(=O)N[C@@H](CCCCN)C(=O)N[C@@H](C)C(=O)N[C@@H](C)C(=O)N[C@@H](CCCNC(=N)N)C(=O)N[C@@H](CCCCN)C(=O)N[C@@H](CCCCN)C(=O)N[C@@H](C)C(=O)N[C@@H](C)C(=O)N[C@@H](CCCCN)C(=O)N[C@@H](C)C(N)=O | HCE-S | fluorescence microscopy | – | 17.5 µM, 24 h, 140:1 ratio, added: 125 nM siGLO siRNA | – | transfection efficiency | > 90% |
| COc1cc(Cn2ccc3cc(C(=O)NCC45CC6CC(CC(C6)C4)C5)ccc32)ccc1C(=O)NO | BV-2 | microglial activation | – | 1000 nM, 3 h, added: LPS 1 µg/mL | – | IBA1 level | decreased |
| Cc1cc(N)c2ccccc2[n+]1CCCCCCCCCCCCCC[n+]1c(C)cc(N)c2ccccc21 | NB12 neuroblastoma tumour-initiating cells | trypan blue exclusion | – | concentration not given | – | time to decreased viability | ≤ 24 h |
| N#Cc1cccc(/C=C/C(=O)c2ccc(O)cc2)c1 | U-87 MG | – | – | concentration not given | reference: gene set | downregulated E2F target genes | 65% |
